Experimental data of several laboratories.
≈ marks a conversion by molar mass, not a printed value.
Organism: Mycobacterium tuberculosis variant bovis BCG
Effect on: microbial growth

Cc1ccc(-c2nc3ccc(C)cn3c2CC(=O)N(C)C)cc1 — MIC (BCG; 6 days): 49 µM (≈ 15.1 µg/mL)
CC1=C(c2nc(C)no2)N2C(=O)[C@@H](NC(=O)COc3ccccc3)[C@H]2SC1 — MIC90 (BCG): > 100 µg/mL
CCCCCCCCn1cc(CN2CCC3(CC2)SCCCS3)c2ccc(OC)cc21 — MIC50 (BCG): 0.28 µM (≈ 0.129 µg/mL)
O=C(O)c1nccnc1NC1CCCC1 — IC50 (ATCC35734 BCG; 5 days): 400 µM
CCCCCCn1c2c([n+](CCCCCC)c1C)C(=O)c1ccccc1C2=O — MIC90 (BCG; 5 days): ≤ 0.3 µM
O=C(O)c1cncc(Cl)n1 — IC50 (ATCC35734 BCG; 5 days): 1000 µM
CCCCCCCCn1c2c([n+](CCCC)c1C)C(=O)c1ccccc1C2=O — MIC90 (BCG; 5 days): ≤ 0.3 µM
CC(C)CNc1cnc(C(=O)O)cn1 — IC50 (ATCC35734 BCG; 5 days): 400 µM
CCCCCCCCn1cc(CN2CCC3(CC2)OCCS3)c2ccc(OC)cc21 — MIC50 (BCG): 0.36 µM (≈ 0.155 µg/mL)
CCCCCC[n+]1c2c(n(CC(C)C)c1C)C(=O)c1ccccc1C2=O — MIC90 (BCG; 5 days): ≤ 0.3 µM
CCCCCCCCn1cc(CN2CCC3(CC2)SCCS3)c2ccc(OC)cc21 — MIC50 (BCG): 0.29 µM (≈ 0.13 µg/mL)
O=C1C=CC(=O)c2ccccc21 — MIC90 (BCG; 5 days): 50 µM
O=C(O)c1ccccc1 — IC50 (ATCC35734 BCG; 5 days): 2200 µM

Some of these lines once more:
CCCCCCCCn1cc(CN2CCC3(CC2)OCCS3)c2ccc(OC)cc21 — MIC50 (BCG): 0.36 µM (≈ 0.155 µg/mL)
CCCCCC[n+]1c2c(n(CC(C)C)c1C)C(=O)c1ccccc1C2=O — MIC90 (BCG; 5 days): ≤ 0.3 µM
